# Assay results pooled from the literature.
# Compare with care: the assays were run in different laboratories. Several values in a cell are separate wells, animals, samples, runs or records. ± gives the spread as reported.
# Sequence of UniProt P33261 (whole entry, looked up): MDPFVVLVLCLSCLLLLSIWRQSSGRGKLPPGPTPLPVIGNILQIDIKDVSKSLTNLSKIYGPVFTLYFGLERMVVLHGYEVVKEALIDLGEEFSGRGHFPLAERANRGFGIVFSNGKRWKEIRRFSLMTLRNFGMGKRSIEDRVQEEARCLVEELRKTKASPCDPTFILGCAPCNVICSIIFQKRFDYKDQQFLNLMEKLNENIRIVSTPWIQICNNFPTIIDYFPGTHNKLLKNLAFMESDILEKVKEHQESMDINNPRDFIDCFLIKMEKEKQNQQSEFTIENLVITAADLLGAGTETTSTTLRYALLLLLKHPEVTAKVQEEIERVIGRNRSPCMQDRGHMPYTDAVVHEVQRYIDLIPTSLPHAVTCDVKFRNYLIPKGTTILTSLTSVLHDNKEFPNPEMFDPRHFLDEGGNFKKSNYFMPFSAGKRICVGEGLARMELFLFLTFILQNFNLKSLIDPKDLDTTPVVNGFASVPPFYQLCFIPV
# Sequence of UniProt P20813 (whole entry, looked up): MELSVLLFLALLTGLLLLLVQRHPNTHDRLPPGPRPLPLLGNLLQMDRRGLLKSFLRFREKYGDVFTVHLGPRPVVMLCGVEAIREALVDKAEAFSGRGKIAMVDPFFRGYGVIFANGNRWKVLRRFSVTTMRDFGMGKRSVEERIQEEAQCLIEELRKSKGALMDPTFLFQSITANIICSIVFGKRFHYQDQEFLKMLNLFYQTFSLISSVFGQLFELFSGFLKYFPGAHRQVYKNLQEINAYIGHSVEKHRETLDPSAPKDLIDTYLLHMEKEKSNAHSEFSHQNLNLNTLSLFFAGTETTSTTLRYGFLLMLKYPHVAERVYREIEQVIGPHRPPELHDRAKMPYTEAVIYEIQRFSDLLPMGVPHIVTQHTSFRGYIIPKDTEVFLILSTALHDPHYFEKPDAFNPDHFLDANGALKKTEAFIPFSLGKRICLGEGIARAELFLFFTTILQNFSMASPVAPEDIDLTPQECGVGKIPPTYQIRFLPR
SMILES,target or system,assay,test system,conditions,scale,measurement,result
CC(=O)N[C@H](C(=O)N[C@H](C(=O)N[C@@H](CCCNC(=N)N)C(=O)N[C@@H](CC(N)=O)C(=O)N[C@@H](CC(=O)O)C(=O)N[C@H](C(=O)N1CCC[C@@H]1C(=O)N1CCC[C@H]1C(=O)N[C@@H](CC(=O)O)C(=O)N[C@@H](CO)C(=O)N[C@@H](CC(C)C)C(=O)N[C@@H](CC(C)C)C(=O)N[C@H](C(=O)N[C@@H](Cc1ccccc1)C(N)=O)C(C)C)C(C)C)[C@@H](C)O)C(C)C,HEK-293T,subcellular fractionation LC-MS,cytoplasmic fraction,"20 µM, 24 h",,concentration,not detected
CN(C)C(=O)CNC(=O)c1ccc([C@H]2[C@@H](F)[C@@H](F)C[C@@H](F)[C@H]2F)cc1,,liver microsome stability,cynomolgus liver microsomes,1 µM,,hepatic clearance,4.9 mL/min/kg
COc1cc(/C=C/C=C2\SC(=S)NC2=O)ccc1O,HEK-293T,CellTiter-Glo,,"2.5 µM, 24 h, unit not given",baseline: untreated,viability,0.992 and 1.01
c1cc(C2CCCCC2)ccc1-c1ccc(N2CCCC2)nc1,,hepatocyte stability,cryopreserved mouse hepatocytes,1 µM,,hepatic clearance,43 mL/min/kg
COC(=O)Nc1nc2cc(C(O)c3ccc(F)cc3)ccc2[nH]1 (stereo not drawn),Salmonella typhimurium,Ames preincubation test,TA1537,"218.8 µg/plate, without S9",,revertants,15.3 revertants/plate
C=CC(=O)Nc1cc(Nc2nccc(-c3cn(C)c4ccccc34)n2)c(OCC(F)(F)F)nc1N(C)CCN(C)C,"Cytochrome P450 2B6 (CYP2B6, Homo sapiens, UniProt P20813)",substrate,,"3 µM, 60 min, 2B6 isoform, liver abundance-normalized",,contribution to substrate depletion,1.49%
CC(C)OCCOCc1ccc(OCC(O)CN(N=O)C(C)C)cc1 (stereo not drawn),Escherichia coli,Ames test,WP2 uvrA,"158 µg/plate, 30 % hamster S9",baseline: solvent control,revertant fold increase,0.9 fold
Cc1cc(=O)c2c(O)c3c(O[C@@H]4O[C@H](CO)[C@@H](O)[C@H](O)[C@H]4O)cc(O)cc3cc2o1,HepaRG co-cultured with HK-2,MTT,,"33.33 µM, 24 h",baseline: untreated control,cell viability,101 ± 10.1%
N#C[C@@H]1CC(F)(F)CN1C(=O)CNC(=O)c1ccnc2c(NC(=O)CCOCCOCCOCCOCCOCCOCCNC(=O)[C@H](CCCCNC(=O)CN3CCN(CC(=O)[O-])CCN(CC(=O)[O-])CCN(CC(=O)[O-])CC3)NC(=O)CCCc3ccc(I)cc3)cccc12.[177Lu+3],U-87 MG tumour model,,"host not given, pancreas","4 h, tumour-bearing",,tracer uptake,2.21 %ID/g
O=C(CN1CCOCC1)Nc1ccc(C2CCCCC2)cc1,,liver microsome stability,dog liver microsomes,1 µM,,hepatic clearance,26 mL/min/kg
CNC(=O)C1CCCN(C(=O)C2CC3CCC2N3C(=O)[C@@H]2C[C@@H](O)CN2C(=O)NCc2cccc(Cl)c2F)C1 (mixture of isomers),"CYP2C19 (Homo sapiens, UniProt P33261)","enzyme activity, inhibitor, time-dependent inhibition",,"16.7 µM, preincubated with NADPH",baseline: negative control,remaining activity,104%
O=C(Nc1ccc([C@H]2[C@@H](F)[C@@H](F)C[C@@H](F)[C@H]2F)cc1)C1CC1,,hepatocyte stability,cryopreserved rat hepatocytes,1 µM,,hepatic clearance,32 mL/min/kg
N#C[C@@H]1CC(F)(F)CN1C(=O)CNC(=O)c1ccnc2c(NC(=O)[C@@H](N)CCCCNC(=O)CCOCCOCCOCCOCCOCCOCCNC(=O)CN3CCN(CC(=O)[O-])CCN(CC(=O)[O-])CCN(CC(=O)[O-])CC3)cccc12.[177Lu+3],U-87 MG tumour model,,"host not given, stomach","24 h, tumour-bearing",,tracer uptake,0.05 %ID/g
O=C(c1ccc(C2CCCCC2)cc1)N1CCC(F)CC1,,liver microsome stability,mouse liver microsomes,1 µM,,hepatic clearance,86 mL/min/kg
O=C1C2CC3CC1CC(C(=O)N1CCN(c4ccc([N+](=O)[O-])c5ncccc45)CC1)(C3)C2,Escherichia coli,Ames test,WP2 uvrA pKM101,"0.02 µg/well, without S9",baseline: vehicle,revertant fold increase,1.3

# Some of these lines once more:
SMILES,target or system,assay,test system,conditions,scale,measurement,result
O=C(Nc1ccc([C@H]2[C@@H](F)[C@@H](F)C[C@@H](F)[C@H]2F)cc1)C1CC1,,hepatocyte stability,cryopreserved rat hepatocytes,1 µM,,hepatic clearance,32 mL/min/kg
N#C[C@@H]1CC(F)(F)CN1C(=O)CNC(=O)c1ccnc2c(NC(=O)[C@@H](N)CCCCNC(=O)CCOCCOCCOCCOCCOCCOCCNC(=O)CN3CCN(CC(=O)[O-])CCN(CC(=O)[O-])CCN(CC(=O)[O-])CC3)cccc12.[177Lu+3],U-87 MG tumour model,,"host not given, stomach","24 h, tumour-bearing",,tracer uptake,0.05 %ID/g
